{"data": "Measurements pooled from the literature", "note": "A part holds a random share of what one study measured. Substitutions count along the parent as printed."}
{"data": "Set 1", "target": "CCNB3, cyclin fold, Cln2 fusion (human)", "technique": "yeast growth competition, sequencing", "sample": "yeast", "setting": "weak parent motif", "baseline": "not given", "reading": "higher = stronger binding", "starting sequence": "PKMYT1 docking peptide (human); SFEPRNLLSLFED; partner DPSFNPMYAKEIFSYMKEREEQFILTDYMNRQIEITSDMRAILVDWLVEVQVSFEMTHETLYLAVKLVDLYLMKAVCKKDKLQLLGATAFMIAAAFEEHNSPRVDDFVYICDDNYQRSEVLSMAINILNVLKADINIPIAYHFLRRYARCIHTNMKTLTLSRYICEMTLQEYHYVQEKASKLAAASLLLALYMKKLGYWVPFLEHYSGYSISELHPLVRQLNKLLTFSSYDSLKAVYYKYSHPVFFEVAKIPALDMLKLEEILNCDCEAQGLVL"}
{"Variant": "R5T", "normalised enrichment score": 0.483}
{"Variant": "L7R", "normalised enrichment score": 0.0824}
{"Variant": "D13R", "normalised enrichment score": 0.492}
{"Variant": "L7V", "normalised enrichment score": 0.349}
{"Variant": "N6Y", "normalised enrichment score": 0.613}
{"Variant": "N6P", "normalised enrichment score": 0.346}
{"Variant": "L10C", "normalised enrichment score": 0.3}
{"Variant": "L7Q", "normalised enrichment score": -0.15}
{"Variant": "R5K F11L", "normalised enrichment score": -0.358}
{"Variant": "L10D", "normalised enrichment score": 0.64}
{"Variant": "F11W", "normalised enrichment score": 1.19}
{"Variant": "F2E", "normalised enrichment score": 0.0429}
{"Variant": "R5C", "normalised enrichment score": -0.09}
{"Variant": "L7A", "normalised enrichment score": 0.821}
{"Variant": "L8Y", "normalised enrichment score": 0.534}
{"Variant": "P4K", "normalised enrichment score": 0.523}
{"Variant": "R5Y", "normalised enrichment score": 0.456}
{"Variant": "E12M", "normalised enrichment score": 0.141}
{"Variant": "R5A L7A", "normalised enrichment score": -0.0517}
{"Variant": "N6T", "normalised enrichment score": 0.563}
{"Variant": "F2D", "normalised enrichment score": 0.449}
{"Variant": "S9R", "normalised enrichment score": 0.59}
{"Variant": "L8W", "normalised enrichment score": 0.419}
{"Variant": "P4R", "normalised enrichment score": 0.408}
{"data": "Set 2", "target": "ABI1, truncated, D143A, DHFR fusion (Arabidopsis thaliana)", "technique": "DHFR PCA, deep sequencing", "sample": "yeast", "setting": "methotrexate growth selection, single substitutions", "added": "(+)-ABA 2500 µM", "baseline": "wild-type fitted maximum", "reading": "higher = stronger binding", "starting sequence": "PYL1, truncated, DHFR fusion (Arabidopsis thaliana); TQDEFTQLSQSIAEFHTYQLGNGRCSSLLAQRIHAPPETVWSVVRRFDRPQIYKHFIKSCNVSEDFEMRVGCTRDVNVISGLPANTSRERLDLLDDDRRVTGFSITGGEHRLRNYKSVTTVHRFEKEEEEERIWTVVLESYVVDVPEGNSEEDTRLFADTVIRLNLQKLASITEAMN"}
{"Variant": "S27L", "relative binding score": "11.8%"}
{"Variant": "S9K", "relative binding score": "118%"}
{"Variant": "T1V", "relative binding score": "96.4%"}
{"Variant": "G102Q", "relative binding score": "90.9%"}
{"Variant": "Y115N", "relative binding score": "-16.8%"}
{"Variant": "G107Q", "relative binding score": "95.9%"}
{"Variant": "E152M", "relative binding score": "96.7%"}
{"Variant": "L82S", "relative binding score": "72%"}
{"Variant": "R155N", "relative binding score": "91%"}
{"Variant": "E109I", "relative binding score": "91.9%"}
{"Variant": "A35N", "relative binding score": "59.5%"}
{"Variant": "S150F", "relative binding score": "81.5%"}
{"Variant": "N77R", "relative binding score": "99.2%"}
{"Variant": "S104C", "relative binding score": "85.1%"}
{"Variant": "N61I", "relative binding score": "101%"}
{"Variant": "F15V", "relative binding score": "80.2%"}
{"Variant": "E139L", "relative binding score": "90.2%"}
{"data": "Set 3", "target": "Interferon regulatory factor 5, full length, phosphomimetic (IRF5, Homo sapiens, UniProt Q13568-2, residues 1-514, K96S/S451D/S453D/S456D/S462D)", "technique": "protein-binding microarray", "form": "double-stranded DNA, one strand shown", "sample": "in vitro", "tested at": "250 nM", "setting": "60-bp whole probe", "added": "salmon DNA 0.4 mg/ml", "baseline": "random background probes", "reading": "higher = stronger binding", "shared flanks, not repeated": "GCCTAGCAC … GTCTTGATTCGCTTGACGCTGCTG"}
{"Oligonucleotide": "GGCGATATCAGTTTCGAGACGTGCTAG", "log fluorescence [z-score]": 6.75}
{"Oligonucleotide": "TTAGATCTCGGTCTCGGTTAGTGCTAG", "log fluorescence [z-score]": 0.724}
{"Oligonucleotide": "CTAGTTTCCATTTTCAGAATGTGCTAG", "log fluorescence [z-score]": 2.91}
{"Oligonucleotide": "GCCGGTTTCGACTTTCGGGACGTGCTA", "log fluorescence [z-score]": 8.68}
{"Oligonucleotide": "GACGGTCTCGGTTTGGGGACGTGCTAG", "log fluorescence [z-score]": 0.342}
{"Oligonucleotide": "TTAGGACTGCTTCGCCTTTAGTGCTAG", "log fluorescence [z-score]": -0.142}
{"Oligonucleotide": "GATGATCTCAGTTTCGAGACGTGCTAG", "log fluorescence [z-score]": 4.87}
{"Oligonucleotide": "AACGATATCAGTTTCGAGACGTGCTAG", "log fluorescence [z-score]": 7.12}
{"Oligonucleotide": "TCATGTCTCCCCCATCTTACTGTGCTA", "log fluorescence [z-score]": 0.0613}
{"Oligonucleotide": "TTAGATATCATACTGGATTAGTGCTAG", "log fluorescence [z-score]": 0.635}
{"Oligonucleotide": "CTGAGGCTGTGTTTTCACTTTGTGCTA", "log fluorescence [z-score]": 1.02}
{"Oligonucleotide": "GACGATTTCGGGTGTCGAGACGTGCTA", "log fluorescence [z-score]": 3.28}
{"Oligonucleotide": "ATGGCTTTGCCTTTTGCTTTGTGCTAG", "log fluorescence [z-score]": -0.0323}
{"Oligonucleotide": "TTAGAGCTGAGTATCGATTAGTGCTAG", "log fluorescence [z-score]": 6.32}
{"Oligonucleotide": "TTACATTTATATCTTTGCTTGTGCTAG", "log fluorescence [z-score]": 1.28}
{"Oligonucleotide": "GACGATTCCAGTTTCGGGACGTGCTAG", "log fluorescence [z-score]": 6.31}
{"Oligonucleotide": "TCAGCTTCCTCTTTCACACTGTGCTAG", "log fluorescence [z-score]": 1.77}
{"data": "Set 4", "target": "UBE2B UBC core domain (UniProt P63146)", "technique": "yeast two-hybrid", "sample": "yeast", "setting": "mostly zero background", "baseline": "not given", "reading": "higher = stronger interaction", "B1": "TRIML1 RING domain (UniProt Q8N9V2); chain LMENLREELTCFICLDYFSSPVTTECGHSFCLVCLLRSWEEHNTPLSCPECWRTLEGPHFQS", "B2": "TRAF5 RING domain (UniProt O00463); chain FVERLEERYKCAFCHSVLHNPHQTGCGHRFCQHCILSLRELNTVPICPVDKEVIKSQEVFK", "B3": "TRIM5 RING domain (UniProt Q9C035); chain ILVNVKEEVTCPICLELLTQPLSLDCGHSFCQACLTANHKKSMLDKGESSCPVCRISYQPENIRP", "B4": "RNF208 RING domain (UniProt Q9H0X6); chain SSAAAGEPLECPTCGHSYNVTQRRPRVLSCLHSVCEQCLQILYESCPKYKFISCPTCRRETVLFTDYG", "B5": "TRIM13 RING domain (UniProt O60858); chain MELLEEDLTCPICCSLFDDPRVLPCSHNFCKKCLEGILEGSVRNSLWRPAPFKCPTCRKETSATGINS", "B6": "TRIM40 RING domain (UniProt Q6P9F5); chain LQKDNQEEGVCPICQESLKEAVSTNCGHLFCRVCLTQHVEKASASGVFCCPLCRKPCSEEVLG", "B7": "RC3H1 RING domain (UniProt Q5TC82); chain QAPQWTDFLSCPICTQTFDETIRKPISLGCGHTVCKMCLNKLHRKACPFDQTTINTDIELL", "B8": "TRIM43 RING domain (UniProt Q96BQ3); chain FSHAFQKELTCVICLNYLVDPVTICCGHSFCRPCLCLSWEEAQSPANCPACREPSPKMDFKT", "chain of UniProt P63146 (whole entry, looked up)": "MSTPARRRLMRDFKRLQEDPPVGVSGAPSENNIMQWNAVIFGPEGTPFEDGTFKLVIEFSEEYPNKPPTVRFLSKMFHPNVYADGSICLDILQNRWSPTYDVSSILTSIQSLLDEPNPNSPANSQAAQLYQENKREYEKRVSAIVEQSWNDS"}
{"Sequence": "PAELEVQASECVVCLEREAQMIFLNCGHVCCCQQCCQPLRTCPLCRQDIAQRLRIY (LRSAM1 RING domain (UniProt Q6UWE0))", "lacZ reporter activity": 0}
{"Sequence": "MPIRALCTICSDFFDHSRDVAAIHCGHTFHLQCLIQWFETAPSRTCPQCRIQVGKRTIIN (TRAIP RING domain (UniProt Q9BWF2))", "lacZ reporter activity": 0}
{"Sequence": "GAAPGPEAAECLVCSELALLVLFSPCQHRTVCEECARRMKKCIRCQVVVSKKLRPD (MIB2 RING domain (UniProt Q96AX9))", "lacZ reporter activity": 0}
{"Sequence": "B1 (TRIML1 RING domain)", "lacZ reporter activity": 0}
{"Sequence": "B2 (TRAF5 RING domain)", "lacZ reporter activity": 0}
{"Sequence": "B3 (TRIM5 RING domain)", "lacZ reporter activity": 0}
{"Sequence": "VEPSEENSKDCVVCQNGTVNWVLLPCRHTCLCDGCVKYFQQCPMCRQFVQESFALC (CGRRF1 RING domain (UniProt Q99675))", "lacZ reporter activity": 0}
{"Sequence": "B4 (RNF208 RING domain)", "lacZ reporter activity": 0}
{"Sequence": "B5 (TRIM13 RING domain)", "lacZ reporter activity": 0}
{"Sequence": "B6 (TRIM40 RING domain)", "lacZ reporter activity": 0}
{"Sequence": "B7 (RC3H1 RING domain)", "lacZ reporter activity": 0}
{"Sequence": "B8 (TRIM43 RING domain)", "lacZ reporter activity": 0}
{"Sequence": "ASLPTSEEDLCPICYAHPISAVFQPCGHKSCKACINQHLMNNKDCFFCKTTIVSVEDWE (RNF123 RING domain (UniProt Q5XPI4))", "lacZ reporter activity": 0}
